Measured values pooled from the literature.
Numbers after ± are the reported error.

SMILES | tested on | test | test system | conditions | scale | quantity | result
Cn1cnc(Cn2c(=O)[nH]/c(=N\c3cc4cn(C)nc4cc3Cl)n(Cc3cc(F)c(F)cc3F)c2=O)n1 |  | measured: adverse events | human, renal impairment and normal | oral, 375 mg single |  | tolerability | not toxic
CC(Nc1nc(N2CCNCC2C)nc2ccccc12)c1ccccc1 (centres unmarked) | SARS-CoV-2 | cytopathic effect | USA_WA1/2020 | retest 8-point |  | efficacy | 75.6%
O=C(Nc1nc(-c2ccccn2)c[nH]1)c1ccccc1 | Mycobacterium tuberculosis | microbial growth, broth dilution | H37RV |  |  | MIC | 3.13 to 6.25 µM
CCCCCCCCCCCCCCCC(=O)NS(=O)(=O)OCCCC | Bacillus anthracis |  | Sterne 34F2 |  |  | MIC | > 200 µg/mL
O=C(CCC1CCCCC1)Nc1ncc(CCc2ccccc2)s1 | Histoplasma capsulatum | microbial growth |  |  |  | MIC | 2.5 µM
O=C(Nc1nc(-c2ccccn2)cs1)c1cccc(F)c1F | Mycobacterium tuberculosis | microbial growth, broth dilution | H37RV |  |  | MIC | 0.098 to 0.19 µM
Cc1nc(NC(=O)CCC2CCCCC2)sc1Cc1ccccc1 | Histoplasma capsulatum | microbial growth |  |  |  | MIC | > 20 µM
CC[C@H](C)[C@H](NC(=O)[C@H](CC(C)C)NC(=O)[C@H](Cc1c[nH]c2ccccc12)NC(=O)[C@H](CCC(N)=O)NC(=O)[C@@H](NC(=O)[C@H](Cc1ccccc1)NC(=O)[C@H](C)NC(=O)[C@H](CCCCNC(=O)COCCOCCNC(=O)COCCOCCNC(=O)CC[C@H](NC(=O)CCCCCCCCCCCCCCCCCCC(=O)O)C(=O)O)NC(=O)[C@H](CCC(N)=O)NC(=O)[C@H](C)NC(=O)[C@@H](NC(=O)[C@H](CCCCN)NC(=O)[C@H](CC(=O)O)NC(=O)[C@H](CC(C)C)NC(=O)C(C)(C)NC(=O)[C@@H](NC(=O)[C@H](CO)NC(=O)[C@H](Cc1ccc(O)cc1)NC(=O)[C@H](CC(=O)O)NC(=O)[C@H](CO)NC(=O)[C@@H](NC(=O)[C@H](Cc1ccccc1)NC(=O)[C@@H](NC(=O)CNC(=O)[C@H](CCC(=O)O)NC(=O)C(C)(C)NC(=O)[C@@H](N)Cc1ccc(O)cc1)[C@@H](C)O)[C@@H](C)O)[C@@H](C)CC)[C@@H](C)CC)C(C)C)C(=O)N[C@@H](C)C(=O)NCC(=O)NCC(=O)N1CCC[C@H]1C(=O)N[C@@H](CO)C(=O)N[C@@H](CO)C(=O)NCC(=O)N[C@@H](C)C(=O)N1CCC[C@H]1C(=O)N1CCC[C@H]1C(=O)N1CCC[C@H]1C(=O)N[C@@H](CO)C(N)=O |  |  | healthy human subjects, serum | 1.5 mg multiple ascending, day 29 |  | total ALT | 28.3 ± 10 U/L
O=C(Nc1ncc(Cc2ccccc2)s1)N1CCOCC1 | Histoplasma capsulatum | microbial growth |  |  |  | MIC | > 20 µM
CCCCCCCC(=O)CP(=O)(O)O | Bacillus anthracis | microbial growth | STERNE34F2 |  |  | MIC | > 200 µg/mL
COc1ccc(Nc2nc(Nc3ccc(OC)cc3OC)nc(N3CCOCC3)n2)c(OC)c1 | SARS-CoV-2 | cytopathic effect, cell-based CPE | USA_WA1/2020 | round 2, 5-point dilution |  | maximal response | 90.2%
O=C(Nc1nc(-c2ccccn2)cs1)c1cc(F)ccc1F | Mycobacterium tuberculosis | microbial growth, broth dilution | H37RV |  |  | MIC | 0.098 to 0.19 µM
O=C(CCC1CCCCC1)Nc1nnc(Cc2ccccc2)s1 | Histoplasma capsulatum | microbial growth |  |  |  | MIC | > 20 µM
Nc1ncnc2c([C@@H]3N[C@H](CO)[C@@H](O)[C@H]3O)c[nH]c12 | Zaire ebolavirus | viral replication, inhibitor | human Macrophage | 0.4 µM |  | inhibition | 16.8%
Oc1c(Cl)cc(Cl)cc1-c1[nH]c(Cl)c(Cl)c1Cl | Yersinia pseudotuberculosis |  | ATCC 6904 |  |  | MIC | 16 µM
CCCCCCCC/C=C\CCCCCCCC(=O)NS(=O)(=O)NCCC | Bacillus anthracis |  | Sterne 34F2 |  |  | MIC | > 200 µg/mL
O=C(Nc1nc(C23CC4CC(CC(C4)C2)C3)cs1)C1CCCCC1 | Histoplasma capsulatum | microbial growth |  |  |  | MIC | 5 to 20 µM
O=[N+]([O-])c1ccc(C2=[N+]([O-])c3ccccc3N3CCN=C23)cc1 | Clostridium perfringens |  |  |  |  | MIC | 0.06 to 0.25 µg/mL
O=C(Nc1nc(-c2ccccn2)cs1)C1CCCC1 | Mycobacterium tuberculosis | microbial growth, broth dilution | H37RV |  |  | MIC | 3.1 to 6.3 µM
CCCCCCCC/C=C\CCCCCCCC(=O)C(F)(F)P(=O)(O)O | Bacillus anthracis | microbial growth | STERNE34F2 |  |  | MIC | 25 µg/mL
O=C(Nc1ncc(Cc2ccccc2)s1)C(F)(F)F | Histoplasma capsulatum | microbial growth |  |  |  | MIC | > 20 µM
O=C(Nc1cc(-c2ccccn2)cs1)c1ccccc1 | Mycobacterium tuberculosis | microbial growth, broth dilution | H37RV |  |  | MIC | 12.5 to 25 µM
O=C(O)c1cn(C2CC2)c2cc(N3CCNCC3)c(F)cc2c1=O | Brucella anthropi |  | ATCC 49687 |  |  | MIC | 1 µM
CCc1c(C(=O)C(N)=O)c2c(OCC(=O)O)cccc2n1Cc1ccccc1 | C2C12 |  |  | 1 µM, together with: AP venom | reference: venom alone | viability difference | 27.4%
CC(=O)c1cccc(C(=O)Nc2nc(-c3ccccn3)cs2)c1 | Mycobacterium tuberculosis | microbial growth, broth dilution | H37RV |  |  | MIC | 0.098 to 0.19 µM
O=C(Nc1ncc(Cc2ccccc2)s1)C1CCSCC1 | Histoplasma capsulatum | microbial growth |  |  |  | MIC | 10 to 20 µM
O=C(CCCCc1ccccc1)CP(=O)(O)O | Bacillus anthracis | microbial growth | STERNE34F2 |  |  | MIC | > 200 µg/mL
CNC(=O)[C@@H](NC(=O)[C@H](CC(C)C)[C@H](O)C(=O)NO)C(C)(C)C | human fibrinogen | SDS-PAGE | Daboia russelii | concentration not given, unit not given, together with: KL venom | reference: untreated fibrinogen | remaining fibrinogen Bβ chain | 0.816
CCCCCCCC(=O)Nc1nc(-c2ccccn2)cs1 | Mycobacterium tuberculosis | microbial growth, broth dilution | H37RV |  |  | MIC | 0.78 to 1.6 µM
